Measured values from different studies.
Protocols differ between the studies behind these lines. “And” joins repeats or separate records; there may be more than shown. Numbers after ± are the reported error.

O=C(NC[C@H]1CN(c2ccc(N3CCOCC3=O)cc2)C(=O)O1)c1ccc(Cl)s1 — Cmax increase (human, mild renal impairment, plasma; oral, 10 mg, added: erythromycin at steady state; baseline: same subjects, compound alone): ~26%
CC#CC(=O)N1CC[C@@H](n2c(=O)n(-c3ccc(Oc4ccccc4)cc3)c3c(N)ncnc32)C1 — Cmax (human, fasting, plasma; oral, 480 mg once daily, cycle 1 day 28): 1940 ng/mL
CC[C@@H]1C(=O)N(C)c2cnc(Nc3ccc(C(=O)N[C@H]4CC[C@H](N5CCN(CC6CC6)CC5)CC4)cc3OC)nc2N1C(C)C — Cmax geometric mean (human, plasma; intravenous infusion, 350 mg over 2 h, first infusion): 675 ng/mL
CC(C)(C)OC[C@@H]1C(=O)NCCN1C(=O)C[C@H](N)Cc1cc(F)c(F)cc1F — Cmax steady state (human, plasma; oral, 5 mg once daily, added: glimepiride 4 mg): 6.9 ± 1.5 ng/mL
CN(C)C/C=C/C(=O)Nc1cc2c(Nc3ccc(F)c(Cl)c3)ncnc2cc1O[C@H]1CCOC1 — Cmax at steady state (human, plasma; oral, 40 mg once daily, day 27, geometric mean): 29 ng/mL
COc1cccc(-c2ccc(NC(=O)C3=C(C(=O)O)CCC3)c(F)c2)c1 — Cmax accumulation ratio (male healthy human, plasma; oral, 50 mg daily, day 13-14, pre-dosed; baseline: day 0-1): 1.48
COC(=O)c1ccc2c(c1)NC(=O)/C2=C(\Nc1ccc(N(C)C(=O)CN2CCN(C)CC2)cc1)c1ccccc1 — Cmax steady state (human mild liver impairment, plasma; oral, 200 mg twice daily, geometric mean): 127 ng/mL
COc1ccc(-n2nc(C(N)=O)c3c2C(=O)N(c2ccc(N4CCCCC4=O)cc2)CC3)cc1 — Cmax and AUC ratio (human, male; oral, 50 mg; baseline: Japanese over Caucasian): 84 to 117%
coproporphyrin I — Cmax ratio (refers to: compound endogenous; human, plasma; added: rosuvastatin and finerenone; baseline: with over without finerenone): 101%
CNC(=O)c1ccc(-c2cnc3ncc(Cc4ccc5ncccc5c4)n3n2)cc1F — Cmax (geometric mean) (human, severe hepatic impairment (Child-Pugh C), plasma; oral, 200 mg single dose): 1770 ng/mL
CC(C)c1nc(N(C)S(C)(=O)=O)nc(-c2ccc(F)cc2)c1/C=C/[C@@H](O)C[C@@H](O)CC(=O)O — Cmax ratio (humans, plasma; oral, dose not given, added: fenebrutinib 200 mg twice daily; baseline: with over without fenebrutinib): ~4.99 fold and 4.99 fold
CCOc1c([C@H](C)n2nc(C)c3c(N)ncnc32)cc(Cl)c(F)c1[C@@H]1CNC(=O)C1 — Cmax geometric mean (healthy fasted humans, plasma; oral, 10 mg): 777 nM
CC[C@H](C)C(=O)O[C@H]1C[C@H](O)C=C2C=C[C@H](C)[C@H](CC[C@@H](O)C[C@@H](O)CC(=O)O)[C@H]21 — Cmax ratio (human fed, plasma; oral, 20 mg single dose, added: ziritaxestat 600 mg once daily; baseline: with over without ziritaxestat): 2.4
COC(=O)c1ccc2c(c1)NC(=O)/C2=C(\Nc1ccc(N(C)C(=O)CN2CCN(C)CC2)cc1)c1ccccc1 — Cmax ratio (human, healthy, plasma; oral, 150 mg, added: rifampicin 600 mg; baseline: alone): 59.8%
CCn1c(C(=O)c2cc(C)cc(C#N)c2)c(C(C)C)c(=O)[nH]c1=O — Cmax at steady state (healthy humans, plasma; oral, 300 mg once daily, 7 days): 706 ± 192 ng/mL
CO[C@H]1C[C@@H]2CC[C@@H](C)[C@@](O)(O2)C(=O)C(=O)N2CCCC[C@H]2C(=O)O[C@H]([C@H](C)C[C@@H]2CC[C@@H](OCCO)[C@H](OC)C2)CC(=O)[C@H](C)/C=C(\C)[C@@H](O)[C@@H](OC)C(=O)[C@H](C)C[C@H](C)/C=C/C=C/C=C/1C — Cmax ratio (healthy human adults, blood; added: ritonavir-containing 3D regimen; baseline: with over without regimen): 4.74
[2H]C([2H])([2H])Oc1cc2c(cc1OC([2H])([2H])[2H])C1CC(=O)C(CC(C)C)CN1CC2 (stereo not shown) — Cmax increase with food (refers to: total (α+β)-HTBZ; human; 15 mg single oral dose, added: high-fat meal; baseline: fasted): ~50%
CC(C)(Sc1ccncc1-c1ccc(C#N)c2ccccc12)C(=O)O — Cmax ratio (human, male, plasma; oral, 10 mg, added: allopurinol 300 mg; baseline: combination over alone): 98.7%
COCCCCn1c(C(=O)N(CC(C)C)[C@@H]2CNC[C@H](C(=O)N3CCOCC3)C2)nc2ccccc21 — Cmax accumulation ratio (non-elderly human, plasma; oral, 160 mg once daily; baseline: later day over first day): 101%
CCOC(=O)[C@H](C)C[C@@H](Cc1ccc(-c2ccccc2)cc1)NC(=O)CCC(=O)O — Cmax at steady state (male human, plasma; oral, 400 mg, day 7, alone, adjusted geometric mean): 2310 ng/mL
Nc1ccn([C@@H]2O[C@H](CO)[C@@H](O)C2(F)F)c(=O)n1 — Cmax and AUC (LC-MS/MS, refers to: lonafarnib; human, plasma; 100 or 200 mg, multiple dose; baseline: lonafarnib alone): no effect
Oc1ncnc2[nH]ncc12 — Cmax ratio (human, male, plasma; oral, 10 mg, added: allopurinol 300 mg; baseline: combination over alone): 133%
CCCCC(=O)N(Cc1ccc(-c2ccccc2-c2nnn[nH]2)cc1)[C@H](C(=O)O)C(C)C — Cmax at steady state (male human, plasma; oral, dose not given, day 8, adjusted geometric mean, added: sildenafil): 3040 ng/mL
CC(C)c1nc(N(C)S(C)(=O)=O)nc(-c2ccc(F)cc2)c1/C=C/[C@@H](O)C[C@@H](O)CC(=O)O — Cmax ratio (human, plasma; oral, added: finerenone simultaneous; baseline: with over without finerenone): 111%
CCCC(CCC)C(=O)O — Cmax breakpoint (regression tree, refers to: neurological adverse events; human, plasma; intravenous): > 256000 ng/mL
